Published values from different studies.
Numbered parts are unrelated; each lists some results of a single study.
Sequence of UniProt P35626 (whole entry, looked up): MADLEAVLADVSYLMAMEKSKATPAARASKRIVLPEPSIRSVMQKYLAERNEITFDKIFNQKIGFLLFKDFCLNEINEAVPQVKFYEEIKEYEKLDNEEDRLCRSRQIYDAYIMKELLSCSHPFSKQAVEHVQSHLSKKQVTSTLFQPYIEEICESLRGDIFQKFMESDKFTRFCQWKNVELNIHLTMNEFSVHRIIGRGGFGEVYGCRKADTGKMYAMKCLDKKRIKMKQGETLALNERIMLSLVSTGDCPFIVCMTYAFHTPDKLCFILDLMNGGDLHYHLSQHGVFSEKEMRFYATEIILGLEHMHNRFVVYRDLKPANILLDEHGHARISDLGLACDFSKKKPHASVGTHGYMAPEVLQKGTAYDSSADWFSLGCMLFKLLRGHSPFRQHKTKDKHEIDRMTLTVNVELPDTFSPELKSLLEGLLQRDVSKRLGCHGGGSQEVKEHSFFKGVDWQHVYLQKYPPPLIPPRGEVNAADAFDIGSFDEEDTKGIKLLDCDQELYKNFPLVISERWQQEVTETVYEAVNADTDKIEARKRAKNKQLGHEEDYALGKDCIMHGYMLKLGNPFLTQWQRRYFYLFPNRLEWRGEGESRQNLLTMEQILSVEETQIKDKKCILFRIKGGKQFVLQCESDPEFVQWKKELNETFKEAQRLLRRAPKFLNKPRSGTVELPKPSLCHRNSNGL
Sequence of UniProt P45984 (whole entry, looked up): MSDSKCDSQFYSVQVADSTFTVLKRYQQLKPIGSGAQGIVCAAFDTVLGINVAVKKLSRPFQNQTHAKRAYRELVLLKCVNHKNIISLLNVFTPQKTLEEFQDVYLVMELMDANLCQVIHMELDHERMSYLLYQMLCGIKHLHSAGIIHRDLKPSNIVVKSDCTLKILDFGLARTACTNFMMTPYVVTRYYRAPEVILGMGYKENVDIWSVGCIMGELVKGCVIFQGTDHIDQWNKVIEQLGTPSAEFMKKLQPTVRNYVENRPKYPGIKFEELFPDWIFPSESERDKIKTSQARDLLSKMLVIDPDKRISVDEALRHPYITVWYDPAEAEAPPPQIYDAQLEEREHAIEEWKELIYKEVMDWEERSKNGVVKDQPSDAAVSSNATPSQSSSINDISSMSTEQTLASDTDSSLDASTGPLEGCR
Sequence of UniProt Q9NQU5 (whole entry, looked up): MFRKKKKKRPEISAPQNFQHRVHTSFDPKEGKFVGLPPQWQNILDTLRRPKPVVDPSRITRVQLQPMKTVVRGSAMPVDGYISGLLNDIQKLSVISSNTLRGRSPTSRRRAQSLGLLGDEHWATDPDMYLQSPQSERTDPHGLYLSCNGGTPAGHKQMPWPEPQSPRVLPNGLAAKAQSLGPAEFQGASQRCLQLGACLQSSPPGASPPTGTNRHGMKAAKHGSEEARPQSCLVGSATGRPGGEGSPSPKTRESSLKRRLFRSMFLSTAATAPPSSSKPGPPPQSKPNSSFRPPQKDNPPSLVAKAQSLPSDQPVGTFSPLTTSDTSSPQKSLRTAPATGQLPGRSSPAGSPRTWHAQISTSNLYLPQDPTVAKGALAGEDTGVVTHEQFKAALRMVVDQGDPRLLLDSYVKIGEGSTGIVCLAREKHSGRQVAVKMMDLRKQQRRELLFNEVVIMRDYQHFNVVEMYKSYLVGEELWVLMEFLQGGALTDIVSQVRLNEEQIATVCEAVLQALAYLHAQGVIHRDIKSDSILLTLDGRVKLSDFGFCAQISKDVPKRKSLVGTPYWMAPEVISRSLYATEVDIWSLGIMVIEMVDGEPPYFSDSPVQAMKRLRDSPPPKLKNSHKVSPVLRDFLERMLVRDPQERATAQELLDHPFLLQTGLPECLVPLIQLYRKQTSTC
Sequence of UniProt Q9Y5Y3 (whole entry, looked up): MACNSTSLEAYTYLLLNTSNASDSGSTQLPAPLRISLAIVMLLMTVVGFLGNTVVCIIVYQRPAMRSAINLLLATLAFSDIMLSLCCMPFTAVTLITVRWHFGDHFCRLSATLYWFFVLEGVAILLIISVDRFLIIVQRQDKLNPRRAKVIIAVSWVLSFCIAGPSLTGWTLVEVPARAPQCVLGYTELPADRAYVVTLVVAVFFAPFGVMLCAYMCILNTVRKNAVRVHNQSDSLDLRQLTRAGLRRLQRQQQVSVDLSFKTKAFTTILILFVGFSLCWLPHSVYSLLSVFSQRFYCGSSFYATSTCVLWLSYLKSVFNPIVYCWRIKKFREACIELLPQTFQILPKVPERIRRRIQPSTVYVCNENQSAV
Sequence of UniProt Q00535 (whole entry, looked up): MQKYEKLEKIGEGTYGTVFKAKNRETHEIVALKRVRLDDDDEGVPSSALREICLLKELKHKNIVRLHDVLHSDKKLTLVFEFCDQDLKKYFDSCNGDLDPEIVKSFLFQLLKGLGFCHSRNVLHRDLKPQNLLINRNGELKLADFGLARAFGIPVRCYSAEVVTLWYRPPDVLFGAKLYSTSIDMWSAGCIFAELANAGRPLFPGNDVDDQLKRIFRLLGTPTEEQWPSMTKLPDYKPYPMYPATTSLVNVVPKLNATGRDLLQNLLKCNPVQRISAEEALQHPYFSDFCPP
Sequence of UniProt Q9P289 (whole entry, looked up): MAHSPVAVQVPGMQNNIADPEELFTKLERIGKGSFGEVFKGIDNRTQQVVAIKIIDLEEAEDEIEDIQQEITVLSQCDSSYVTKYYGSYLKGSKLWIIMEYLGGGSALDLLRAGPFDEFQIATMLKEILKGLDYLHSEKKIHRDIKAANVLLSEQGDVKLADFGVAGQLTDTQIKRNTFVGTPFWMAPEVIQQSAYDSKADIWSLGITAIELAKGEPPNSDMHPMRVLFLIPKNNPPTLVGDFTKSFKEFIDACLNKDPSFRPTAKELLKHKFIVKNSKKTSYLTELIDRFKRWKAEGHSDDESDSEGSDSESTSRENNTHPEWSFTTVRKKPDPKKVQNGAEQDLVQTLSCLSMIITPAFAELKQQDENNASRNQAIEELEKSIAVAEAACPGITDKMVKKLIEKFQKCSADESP
Sequence of UniProt P06241 (whole entry, looked up): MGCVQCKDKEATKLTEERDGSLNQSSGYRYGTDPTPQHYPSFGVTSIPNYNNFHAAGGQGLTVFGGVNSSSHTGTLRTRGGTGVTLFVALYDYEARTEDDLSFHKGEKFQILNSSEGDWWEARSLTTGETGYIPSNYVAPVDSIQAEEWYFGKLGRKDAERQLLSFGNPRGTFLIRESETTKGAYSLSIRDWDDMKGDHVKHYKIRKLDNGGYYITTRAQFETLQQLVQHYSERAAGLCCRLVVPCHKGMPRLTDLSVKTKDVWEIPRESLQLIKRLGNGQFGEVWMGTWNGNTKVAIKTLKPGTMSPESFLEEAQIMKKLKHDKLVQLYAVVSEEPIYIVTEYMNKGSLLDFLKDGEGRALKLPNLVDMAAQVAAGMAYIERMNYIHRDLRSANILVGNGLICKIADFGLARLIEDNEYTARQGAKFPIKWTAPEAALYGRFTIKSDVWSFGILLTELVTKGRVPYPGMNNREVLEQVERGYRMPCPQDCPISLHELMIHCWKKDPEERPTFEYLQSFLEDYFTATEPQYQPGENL
Sequence of UniProt P51955 (whole entry, looked up): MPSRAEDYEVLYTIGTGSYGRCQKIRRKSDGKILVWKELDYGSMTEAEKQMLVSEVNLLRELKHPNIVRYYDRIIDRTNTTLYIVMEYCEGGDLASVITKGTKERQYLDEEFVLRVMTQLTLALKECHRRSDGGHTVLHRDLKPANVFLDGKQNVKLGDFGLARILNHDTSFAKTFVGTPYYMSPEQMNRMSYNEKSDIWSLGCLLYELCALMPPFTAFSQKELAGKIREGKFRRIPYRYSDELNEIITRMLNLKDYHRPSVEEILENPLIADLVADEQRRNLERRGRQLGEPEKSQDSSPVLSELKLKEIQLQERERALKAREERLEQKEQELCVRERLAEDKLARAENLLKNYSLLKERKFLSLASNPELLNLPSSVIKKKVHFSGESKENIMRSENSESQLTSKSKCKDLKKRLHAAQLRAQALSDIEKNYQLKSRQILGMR
Sequence of UniProt Q00526 (whole entry, looked up): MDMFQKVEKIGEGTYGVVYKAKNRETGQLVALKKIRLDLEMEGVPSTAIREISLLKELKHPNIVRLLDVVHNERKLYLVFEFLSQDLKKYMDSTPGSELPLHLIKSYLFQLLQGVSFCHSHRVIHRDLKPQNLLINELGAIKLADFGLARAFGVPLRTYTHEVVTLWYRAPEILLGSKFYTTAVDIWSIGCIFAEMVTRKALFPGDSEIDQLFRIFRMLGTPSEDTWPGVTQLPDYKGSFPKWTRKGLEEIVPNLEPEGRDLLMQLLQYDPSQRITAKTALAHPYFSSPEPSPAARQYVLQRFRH
Sequence of UniProt O75582 (whole entry, looked up): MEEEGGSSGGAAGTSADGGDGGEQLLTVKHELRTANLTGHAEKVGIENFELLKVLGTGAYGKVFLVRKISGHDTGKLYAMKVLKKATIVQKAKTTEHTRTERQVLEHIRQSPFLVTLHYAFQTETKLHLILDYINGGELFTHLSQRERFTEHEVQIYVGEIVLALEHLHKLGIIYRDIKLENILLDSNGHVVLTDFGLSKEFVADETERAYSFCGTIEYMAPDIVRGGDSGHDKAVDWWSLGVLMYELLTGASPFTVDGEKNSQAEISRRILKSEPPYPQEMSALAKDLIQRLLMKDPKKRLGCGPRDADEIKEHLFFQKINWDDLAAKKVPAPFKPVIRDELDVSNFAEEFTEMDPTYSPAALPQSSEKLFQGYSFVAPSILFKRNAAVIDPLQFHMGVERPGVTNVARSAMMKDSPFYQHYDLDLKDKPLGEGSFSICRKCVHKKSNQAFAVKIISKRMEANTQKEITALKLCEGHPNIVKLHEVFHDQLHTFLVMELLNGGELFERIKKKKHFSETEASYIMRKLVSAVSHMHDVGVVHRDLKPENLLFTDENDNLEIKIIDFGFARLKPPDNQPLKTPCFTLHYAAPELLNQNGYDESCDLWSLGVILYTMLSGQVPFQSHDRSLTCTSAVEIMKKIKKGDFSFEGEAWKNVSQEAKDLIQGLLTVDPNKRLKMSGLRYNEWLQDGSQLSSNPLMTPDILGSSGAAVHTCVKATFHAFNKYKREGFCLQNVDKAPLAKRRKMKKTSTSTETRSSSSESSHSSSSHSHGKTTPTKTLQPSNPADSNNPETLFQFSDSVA

Series 1
Compound: CCN(c1nc(N)c(C(=O)N=C(N)N)nc1Cl)C(C)C
Observed: β-arrestin recruitment
Action: agonist
Method: PRESTO-Tango
Concentration: 10 µM
Relative to: untreated
Measurement: fold over basal
Mas-related G-protein coupled receptor member F (MRGPRF, Homo sapiens, UniProt Q96AM1): 1.11
ADRB1 (Homo sapiens, UniProt P08588): 1.38
G-protein coupled receptor 83 (GPR83, Homo sapiens, UniProt Q9NYM4): 0.52
G-protein coupled receptor 22 (GPR22, Homo sapiens, UniProt Q99680): 1.1
CCR5 (Homo sapiens, UniProt P51681): 1.94
Probable G-protein coupled receptor 141 (GPR141, Homo sapiens, UniProt Q7Z602): 1.18
GPR52 (Homo sapiens, UniProt Q9Y2T5): 0.92
MCHR2 (Homo sapiens, UniProt Q969V1): 1.04
PRLHR (Homo sapiens, UniProt P49683): 0.99
Probable G-protein coupled receptor 45 (GPR45, Homo sapiens, UniProt Q9Y5Y3): 0.99
HTR2C (Homo sapiens, UniProt P28335): 1.22
CCR10 (Homo sapiens, UniProt P46092): 0.86
PROKR1 (Homo sapiens, UniProt Q8TCW9): 1.02
PTGER4 (Homo sapiens, UniProt P35408): 0.73
Secretin receptor (SCTR, Homo sapiens, UniProt P47872): 1.1

Series 2
Host: mouse
Matrix: microsomes or S9
Concentration: 2 µM
Time: 0.5 h
Measurement: remaining compound
O=C1CCC2=C1C(c1ccccc1)Nc1ccccc1N2 (stereo not drawn): 63.2%
COCCn1cc2c3c(cccc31)CN(C(=O)Nc1ccccc1C(F)(F)F)CC2: 5.58%
Cc1cc(C(=O)Nc2nnc3n2CCCC3)n(C)n1: 70.9%
CCc1cc2c(NCCO)nc(-c3ccccc3)nc2s1: 2.22%
C[C@@H](NC(=O)c1ccc(F)cc1)[C@H](O)c1ccccc1: 60.8%
O=C(NCc1cccc(F)c1)c1c(OCC2CC2)cc(=O)n2c1CCCCC2: 15.4%
CCOc1ccccc1NC(=O)NC1(C(=O)O)CCCCC1: 78.1%
O=S1(=O)c2ccccc2C(O)C(Cc2ccccc2O)N1Cc1cccnc1 (stereo not drawn): 8.99%
O=C(NC(c1ccccc1)c1cccc2ccccc12)c1nc(=O)[nH][nH]1 (stereo not drawn): 69.7%

Series 3
Compound: O=S(=O)(NCCNC/C=C/c1ccc(Br)cc1)c1cccc2cnccc12
Observed: enzyme activity
Action: inhibitor
Concentration: 0.5 µM
Relative to: control
Measurement: remaining activity
TGFBR1 (Homo sapiens, UniProt P36897): 97%
CAMKK2 (Homo sapiens, UniProt Q96RR4): 95.6%
MAP3K3 (Homo sapiens, UniProt Q99759): 85.4%
OXSR1 (Homo sapiens, UniProt O95747): 95.9%
MAPK9 (Homo sapiens, UniProt P45984): 93.4%
GRK3 (Homo sapiens, UniProt P35626): 101%
IKBKE (Homo sapiens, UniProt Q14164): 92.3%
cGMP-dependent protein kinase 1, isoform beta (PRKG1, Homo sapiens, UniProt Q13976): 41.1%
NEK2 (Homo sapiens, UniProt P51955): 97.1%
CHEK2 (Homo sapiens, UniProt O96017): 82.8%
DAPK2 (Homo sapiens, UniProt Q9UIK4): 72.1%
DAPK1 (Homo sapiens, UniProt P53355): 81.5%
STK10 (Homo sapiens, UniProt O94804): 89.2%
Cyclin-dependent kinase 4, with cyclin D1 (CDK4, Homo sapiens, UniProt P11802): 93.9%
PRKCA (Homo sapiens, UniProt P17252): 85.7%
CAMK2D (Homo sapiens, UniProt Q13557): 97.1%
Cyclin-dependent kinase 5, with p25 (CDK5, Homo sapiens, UniProt Q00535): 113%
STK11 (Homo sapiens, UniProt Q15831): 102%
Protein kinase C beta type, isoform beta-I (PRKCB, Homo sapiens, UniProt P05771): 88.3%
PRKACA (Homo sapiens, UniProt P17612): 10.5%
TGFBR2 (Homo sapiens, UniProt P37173): 92.1%
IKBKB (Homo sapiens, UniProt O14920): 89.5%
STK39 (Homo sapiens, UniProt Q9UEW8): 103%

Series 4
SMILES: COc1cc(-c2cn(C3CCc4ccccc4N(CC(F)(F)F)C3=O)nn2)ccc1-n1ccc(C)n1 (stereo not drawn)
Observed: cell-free assay
Method: competition with immobilised ligand
Concentration: 1 µM
Measurement: remaining binding
TSSK3 (Homo sapiens, UniProt Q96PN8): 100%
GRK3 (Homo sapiens, UniProt P35626): 100%
PIK3CA (Homo sapiens, UniProt P42336, C420R): 68%
MAP4K4 (Homo sapiens, UniProt O95819): 100%
MAPK9 (Homo sapiens, UniProt P45984): 64%
Ribosomal protein S6 kinase alpha-5, N-terminal kinase domain (RPS6KA5, Homo sapiens, UniProt O75582): 74%
IRAK1 (Homo sapiens, UniProt P51617): 100%
MAP2K5 (Homo sapiens, UniProt Q13163): 74%
PAK4 (Homo sapiens, UniProt O96013): 100%
PRKCH (Homo sapiens, UniProt P24723): 73%
PAK6 (Homo sapiens, UniProt Q9NQU5): 100%
AKT3 (Homo sapiens, UniProt Q9Y243): 89%
FYN (Homo sapiens, UniProt P06241): 94%
FGFR3 (Homo sapiens, UniProt P22607, G697C): 90%
GRK4 (Homo sapiens, UniProt P32298): 100%
MAP2K3 (Homo sapiens, UniProt P46734): 89%
MAPK15 (Homo sapiens, UniProt Q8TD08): 100%
STK26 (Homo sapiens, UniProt Q9P289): 83%
CDK3 (Homo sapiens, UniProt Q00526): 100%

Excerpt of the above (series 4):
MAP4K4 (Homo sapiens, UniProt O95819): 100%
MAP2K5 (Homo sapiens, UniProt Q13163): 74%
PAK4 (Homo sapiens, UniProt O96013): 100%
MAP2K3 (Homo sapiens, UniProt P46734): 89%
MAPK9 (Homo sapiens, UniProt P45984): 64%
CDK3 (Homo sapiens, UniProt Q00526): 100%
